Published values pooled from the literature.
Every numbered part comes from another study and shows a few of its results, in no order.

Sample 1
Target: RNA binding protein fox-1 homolog 2, RRM domain, GST-SBP tag (RBFOX2, Homo sapiens, UniProt O43251-10, residues 100-194)
Technique: RNA Bind-n-Seq
Molecule type: RNA
Medium: in vitro
Concentration: 365 nM
Setting: natural RNA segment, single round, ends assumed
Relative to: no-protein control
Direction: higher = stronger binding
Target sequence (chain): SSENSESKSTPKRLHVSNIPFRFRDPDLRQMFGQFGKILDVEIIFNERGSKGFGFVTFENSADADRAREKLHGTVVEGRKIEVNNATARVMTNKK
For `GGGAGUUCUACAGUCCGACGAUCUGGUAGCUAAUUUUUCUUUACCUAUUUUCUAAUGUCAUGAUUCCUGUUUGCCCAAUGGAUCAUUUGUAUGUUAACCACUGUAUGUAACCAACCCUUAUCUGGCAACAUAAUGGAAUUCUCGGGUGCCAA`, “RBNS enrichment (R)” read 2.7.
`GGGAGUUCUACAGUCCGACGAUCUGGAUGUGGCUGCCCAGGAAAAGACUUAACUGUGAAAAAGUACUGAGAACCCACCUGACCCAGGCUUGCCCCAAGCAGAGGCUAGAGAAGAGGCUCCUCUUCUCAGUGUUUGGAAUUCUCGGGUGCCAA` — result for “RBNS enrichment (R)”: 0.351.
For `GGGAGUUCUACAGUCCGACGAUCAAAAAAACAAAGCAACAAAUUAACUAGAUACAGAAUAAUGGAGAACAAGUUGUUAAAACAUUUAAUAUUAUAUAGGAUAUUGCUAAUUGUGUAUAUGUUGGUUUAAUUAAUGGAAUUCUCGGGUGCCAA`, “RBNS enrichment (R)” read 0.768.
For `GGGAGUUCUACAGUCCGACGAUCAGAAGUAGCUACGUUCAACAGAACAUCCAAAGACUCAACAGCAACAAAAUGGAGAGCAUACUUACAGACUCCUGUGCGAUAGCUACUUUUAAAUACAUUUCAAUAAUUUUUGGAAUUCUCGGGUGCCAA`, “RBNS enrichment (R)” read 0.465.
Under “RBNS enrichment (R)”, `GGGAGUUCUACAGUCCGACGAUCUGUAAAUGCUGCCCUCUGCCGCCUUUGUUUUGAGAUGCAGUUUAAACUCCCUCUGGCUGCUGCUGCUGCUUUUUGGUGUCCCGACAUACCUACGCCCCCGUUUUAUGGGUUGGAAUUCUCGGGUGCCAA` is recorded as 0.334.
`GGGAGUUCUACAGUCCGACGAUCGACCAACCUGGCUAACAUGGCAAAACCUCGUCUCUACUAAAAAUACAAAAAUCAGCCCGGCGUGGUGGCGGGCAUCUGUAAUCCCAUCUACUCGGGAGGCUGAGGCAGGAUGGAAUUCUCGGGUGCCAA`: “RBNS enrichment (R)” 0.537.
For `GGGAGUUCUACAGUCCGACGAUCAAUUUCCUUUGACUUUUGUGGCGCAUAGGAGUCCGUGUUUAUCUUCUCGAUUUUGUUCUGAGGGUUUAUGAACUCAUUGAGAACCAGGAUUCCUUGAGACUCUUUAGCAUUGGAAUUCUCGGGUGCCAA`, “RBNS enrichment (R)” read 0.511.
For `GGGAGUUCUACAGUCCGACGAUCUGCAGCCCCCGGAGGCCCCGCUGAAACCUGGGCUGCCCUUCCCCCACCCCCACGGCUCUCCUGGUUGAGGAGGGAGGGGCCUGGCUGACCCCUCCAGCUUCAGCCUCCAGUGGAAUUCUCGGGUGCCAA`, “RBNS enrichment (R)” read 0.318.

Sample 2
Target: Centromere-binding protein 1, full length, N-terminal tag (CBF1, Saccharomyces cerevisiae, UniProt P17106, residues 1-351)
UniProt P17106, sequence (whole entry, looked up): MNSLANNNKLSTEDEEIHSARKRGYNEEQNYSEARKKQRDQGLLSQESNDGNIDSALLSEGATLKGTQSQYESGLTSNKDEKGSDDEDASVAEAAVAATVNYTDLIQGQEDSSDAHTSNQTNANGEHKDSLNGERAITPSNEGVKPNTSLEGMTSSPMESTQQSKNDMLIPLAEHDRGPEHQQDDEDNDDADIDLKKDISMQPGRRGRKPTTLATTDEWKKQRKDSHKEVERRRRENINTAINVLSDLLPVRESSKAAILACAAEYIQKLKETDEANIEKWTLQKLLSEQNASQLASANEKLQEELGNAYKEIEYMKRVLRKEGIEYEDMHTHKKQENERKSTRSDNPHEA
Technique: protein-binding microarray
Molecule type: double-stranded DNA, one strand shown
Medium: in vitro
Concentration: 0.8 µM
Setting: whole 60-bp probe, no competitor
Direction: higher = stronger binding
`CTAGAAACGCTACACGTGATGATAATGGAACTATTCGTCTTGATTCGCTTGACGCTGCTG` has a fluorescence intensity of 7370 a.u.
The fluorescence intensity of `GAATAATACGCAGGTGACGTTTGATAATGTGAATAGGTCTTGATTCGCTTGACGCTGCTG` is reported as 1280 a.u.
With `CTATCCTTTTTTAGCACGTGAACGGTAATAACGTTCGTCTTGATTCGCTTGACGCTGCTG` the fluorescence intensity was 11900 a.u.
For `CTACATCATATTGGTCATGATTAATAATAAACCTTCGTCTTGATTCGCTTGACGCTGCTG`, the fluorescence intensity was 606 a.u.
`CTATATAGTAGTACTCACGTTACTAGTATATCATTCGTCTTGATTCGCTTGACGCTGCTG` gave a fluorescence intensity of 1170 a.u.
`GAATCCCATGACAAACTCACCTGGATAGTATGGTAGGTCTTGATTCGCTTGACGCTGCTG` has a fluorescence intensity of 560 a.u.
`CCTAACTACTATAGTCATGAGCAATAGCTTCGTACAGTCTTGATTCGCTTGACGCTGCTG` gave a fluorescence intensity of 576 a.u.
The fluorescence intensity of `GAACAGATGGGATGACATGTGAAAAGTGTAACATAGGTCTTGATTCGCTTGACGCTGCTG` is reported as 639 a.u.
The fluorescence intensity of `CTAGGTCAGAAAACACACGCGGAAAATCCAAAGTTCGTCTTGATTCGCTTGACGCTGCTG` is reported as 531 a.u.
With `CCTAACTACTATACAAGTGTCACATAGCTTCGTACAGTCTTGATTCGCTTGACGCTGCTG` the fluorescence intensity was 544 a.u.
`TGTACGAAGCTATTATTACACGTTATAGTAGTTAGGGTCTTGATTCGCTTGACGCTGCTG` has a fluorescence intensity of 556 a.u.
For `GAATTGTACATATACCTCACCTGAGTTTTGCTTTAGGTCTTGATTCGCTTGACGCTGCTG`, the fluorescence intensity was 507 a.u.
For `CTATTCCACTTTCAGCACGTTCTCGTCATCAGGTTCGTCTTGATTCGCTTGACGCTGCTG`, the fluorescence intensity was 831 a.u.
With `CCTAACTACTATATTCACGACACATAGCTTCGTACAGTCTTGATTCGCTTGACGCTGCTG` the fluorescence intensity was 544 a.u.
`CCTAACTACTATAATCACCCCTTATAGCTTCGTACAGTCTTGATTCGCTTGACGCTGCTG` has a fluorescence intensity of 506 a.u.
For `CTAACGTGGCCGCTTCGTGTGCCTTGAAAATACTTCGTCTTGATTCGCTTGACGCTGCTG`, the fluorescence intensity was 530 a.u.
`CCTAACTACTATACACGTGCCATATAGCTTCGTACAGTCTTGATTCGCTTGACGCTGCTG` has a fluorescence intensity of 9010 a.u.
`GAATAAAATTATAACGGCGTGCTCGAGAGAAAATAGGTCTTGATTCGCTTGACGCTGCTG` has a fluorescence intensity of 583 a.u.
For `CTATTATCCATTTTTAACGTGGTGAGAAAACCCTTCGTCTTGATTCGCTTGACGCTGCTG`, the fluorescence intensity was 718 a.u.

Sample 3
Target: Interferon regulatory factor 5, full length, phosphomimetic (IRF5, Homo sapiens, UniProt Q13568-2, residues 1-514, K96S/S451D/S453D/S456D/S462D)
Technique: protein-binding microarray
Molecule type: double-stranded DNA, one strand shown
Medium: in vitro
Concentration: 250 nM
Setting: 60-bp whole probe
Added: salmon DNA 0.4 mg/ml
Relative to: random background probes
Direction: higher = stronger binding
Constant ends, left off below: GCCTAGCAC … GTCTTGATTCGCTTGACGCTGCTG
The log fluorescence of `GACGATATTAGACTGGAGACGTGCTAG` is reported as 0.475 z-score.
`TCCTCTTTCTCTGCTACCCTTGTGCTA` has a log fluorescence of 1.54 z-score.
For `GACGTTTTCGGGTATCGAGACGTGCTA`, the log fluorescence was 6.71 z-score.
The log fluorescence of `GACGGTCTCGGACTCGGGACGTGCTAG` is reported as -0.389 z-score.
With `GACGGACTCCTTCTCCTGACGTGCTAG` the log fluorescence was -0.434 z-score.
`TTAGGTTTCGGGTTTCGCTTAGTGCTA` gave a log fluorescence of 8.8 z-score.
With `TTAAAACTGAGTCTCGATTAGTGCTAG` the log fluorescence was 1 z-score.
The log fluorescence of `TTAGGTCTCGGTCTCGGTTAGTGCTAG` is reported as 1.06 z-score.
`TTAGAACTGAGATTCGATTAGTGCTAG` gave a log fluorescence of 0.698 z-score.
`TCAGGTTTACCAGATCATACTGTGCTA` gave a log fluorescence of -0.396 z-score.
`TTAGATATCGGGACTGGATTAGTGCTA` has a log fluorescence of 1.23 z-score.
`TTAGATTTCGTGTTTCGATTAGTGCTA` has a log fluorescence of 7.44 z-score.
For `TTAGGTTTCGGGACTGGGTCAGTGCTA`, the log fluorescence was 6.27 z-score.
`GAAAGGTACCATGGTGGCTCGTGCTAG` has a log fluorescence of 0.916 z-score.
`GACGATTTCCGGTATCGAGACGTGCTA` has a log fluorescence of 2.55 z-score.
The log fluorescence of `TTAGAGTTCGGGTTTCGATTAGTGCTA` is reported as 6.34 z-score.
`TGAGATTTCAGACTGGATTAGTGCTAG` has a log fluorescence of 0.125 z-score.
`GACGAACTGAGACTGGAGACGTGCTAG` gave a log fluorescence of -0.21 z-score.
`CTCCTTCAGTATCCTTAGATGTGCTAG` gave a log fluorescence of 0.498 z-score.

Sample 4
Target: Histone acetyltransferase KAT6A, winged helix 1, GST fusion (KAT6A, Homo sapiens, UniProt Q92794, residues 1-85)
Technique: protein binding microarray
Molecule type: double-stranded DNA, one strand shown
Medium: in vitro
Concentration: not given
Setting: 8-mer, flanks averaged, mean of 2 arrays, mostly near background
Relative to: not given
Direction: higher = stronger binding
Target sequence (chain): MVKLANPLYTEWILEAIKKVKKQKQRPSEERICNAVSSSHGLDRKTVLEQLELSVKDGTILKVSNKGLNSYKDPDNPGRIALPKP
For `AAAAAGAA`, the E-score was -0.218.
`AATACAGT` has an E-score of -0.218.
`GAAAGTAA` has an E-score of -0.0551.
For `CAGTCGCC`, the E-score was 0.0323.
`GATAACAC` gave an E-score of 0.069.
`ATAAAACA` gave an E-score of -0.0918.
The E-score of `AAAACACA` is reported as -0.292.
For `ATTACTCG`, the E-score was 0.058.
With `AGGTCAGG` the E-score was -0.256.
`CCATATAA` gave an E-score of -0.0836.
For `CTGATAAC`, the E-score was -0.0791.
`ACACCCGA` gave an E-score of 0.115.
With `CTACTGCC` the E-score was 0.106.
The E-score of `GGTAGAAC` is reported as 0.0172.
The E-score of `GCGCCTCA` is reported as 0.253.
`ACTAATAG` gave an E-score of -0.14.
For `AGGATTTG`, the E-score was -0.239.
The E-score of `ATCGCAGG` is reported as -0.185.
With `GAGCTGTA` the E-score was -0.186.
With `ATTGAGAC` the E-score was -0.0214.
The E-score of `AGCCGGAT` is reported as 0.0992.
For `CATGGGCC`, the E-score was -0.0667.
`AACTATAC` gave an E-score of 0.0374.
For `CTAAATCC`, the E-score was -0.0815.
